Experimental data from different studies.
Numbered parts are unrelated; each lists some results of a single study.

Block 1
Target: Histone acetyltransferase KAT6A, winged helix 1, GST fusion (KAT6A, Homo sapiens, UniProt Q92794, residues 1-85)
Method: protein binding microarray
Molecule type: double-stranded DNA, one strand shown
Matrix: in vitro
Concentration: not given
Notes: 8-mer, flanks averaged, mean of 2 arrays, mostly near background
Baseline: not given
Direction: higher = stronger binding
Quantity: E-score
Residues (chain): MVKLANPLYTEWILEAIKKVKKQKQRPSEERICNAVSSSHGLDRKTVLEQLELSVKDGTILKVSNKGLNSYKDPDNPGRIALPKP
Strand = CATGCATC; result = 0.0323
Strand = CACCGCTA; result = 0.209
Strand = CCCGTTAC; result = 0.26

Block 2
Target: Interferon regulatory factor 5, full length, phosphomimetic (IRF5, Homo sapiens, UniProt Q13568-2, residues 1-514, K96S/S451D/S453D/S456D/S462D)
Method: protein-binding microarray
Molecule type: double-stranded DNA, one strand shown
Matrix: in vitro
Concentration: 250 nM
Notes: 60-bp whole probe
Added: salmon DNA 0.4 mg/ml
Baseline: random background probes
Direction: higher = stronger binding
Quantity: log fluorescence
Strand = GCCTAGCACTCACCTCTCTCTTTCCAACTGTGCTAGGTCTTGATTCGCTTGACGCTGCTG; result = 0.425 z-score
Strand = GCCTAGCACGACGATATCGGCTATCGAGACGTGCTAGTCTTGATTCGCTTGACGCTGCTG; result = 2.33 z-score
Strand = GCCTAGCACTTAGGTTTCCTTTCTCTTTAGTGCTAGGTCTTGATTCGCTTGACGCTGCTG; result = 3 z-score
Strand = GCCTAGCACGACGGGTTCCTTTTCCTGACGTGCTAGGTCTTGATTCGCTTGACGCTGCTG; result = 0.111 z-score

Block 3
Target: Sal-like protein 4, full length isoform B (SALL4, Homo sapiens, UniProt Q9UJQ4-2, residues 1-616)
Method: universal PBM
Molecule type: double-stranded DNA, one strand shown
Matrix: in vitro
Concentration: not given
Notes: 8-mer, flanks averaged, mean of replicates
Direction: higher = stronger binding
Quantity: E-score
Target sequence (chain): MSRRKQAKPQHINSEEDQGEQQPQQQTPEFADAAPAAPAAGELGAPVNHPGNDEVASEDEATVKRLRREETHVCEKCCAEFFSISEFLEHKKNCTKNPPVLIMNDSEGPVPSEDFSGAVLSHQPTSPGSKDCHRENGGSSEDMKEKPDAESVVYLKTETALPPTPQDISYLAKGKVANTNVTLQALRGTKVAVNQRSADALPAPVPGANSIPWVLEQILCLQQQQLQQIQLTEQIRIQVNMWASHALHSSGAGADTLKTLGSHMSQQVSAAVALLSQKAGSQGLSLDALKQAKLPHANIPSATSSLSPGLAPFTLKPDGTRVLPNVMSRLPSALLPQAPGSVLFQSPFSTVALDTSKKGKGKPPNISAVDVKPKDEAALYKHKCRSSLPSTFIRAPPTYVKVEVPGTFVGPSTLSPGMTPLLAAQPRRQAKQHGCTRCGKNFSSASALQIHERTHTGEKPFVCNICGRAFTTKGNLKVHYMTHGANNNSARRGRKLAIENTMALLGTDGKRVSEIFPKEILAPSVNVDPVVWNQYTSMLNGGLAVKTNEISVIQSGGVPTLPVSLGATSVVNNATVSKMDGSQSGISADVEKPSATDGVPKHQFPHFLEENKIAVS
Strand = CAGTTCAA; result = -0.0474
Strand = ATAGTGCC; result = -0.0326
Strand = TGGCCAAA; result = -0.0293
Strand = AGCGTGCA; result = -0.0509
Strand = CGCTCAGA; result = -0.196

Mixed results
Molecule = PhoQ, residues 284 288 289 292 302 303 NLALSC; target = PhoP, residues 12 14 15 18 19 LFHKL (Escherichia coli, UniProt P23836); assay = Sort-seq, item: YFP reporter; system = E. coli; conditions = PhoQ-PhoP variant library, added: 10 µM Mg2+; how to read = baseline: high Mg2+ state, higher = stronger signaling; quantity = fold induction; result = 2.3

A few entries again (block 3):
Strand = ATAGTGCC; result = -0.0326
